Results pooled from the literature.
Compare with care: the assays were run in different laboratories.
tmk: Thymidylate kinase (tmk, Mycobacterium tuberculosis, UniProt P9WKE1)
HTR2C: 5-hydroxytryptamine receptor 2C (HTR2C, Homo sapiens, UniProt P28335)
Chain of UniProt P28335 (whole entry, looked up): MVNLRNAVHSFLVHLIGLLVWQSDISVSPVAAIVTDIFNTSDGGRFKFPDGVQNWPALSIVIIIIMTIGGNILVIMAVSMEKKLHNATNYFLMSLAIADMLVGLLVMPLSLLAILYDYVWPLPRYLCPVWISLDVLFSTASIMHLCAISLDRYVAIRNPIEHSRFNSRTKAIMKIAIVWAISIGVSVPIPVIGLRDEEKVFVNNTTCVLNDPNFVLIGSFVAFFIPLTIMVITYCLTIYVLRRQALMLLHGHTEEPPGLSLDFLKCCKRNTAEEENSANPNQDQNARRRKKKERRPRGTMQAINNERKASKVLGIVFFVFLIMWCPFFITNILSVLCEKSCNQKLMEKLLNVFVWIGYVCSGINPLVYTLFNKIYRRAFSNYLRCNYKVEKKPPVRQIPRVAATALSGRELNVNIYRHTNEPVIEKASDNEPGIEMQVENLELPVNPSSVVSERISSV
PFF0160c E182D: Dihydroorotate dehydrogenase (quinone), mitochondrial (PFF0160c, Plasmodium falciparum, UniProt Q08210, E182D)
Htr2c: 5-hydroxytryptamine receptor 2C (Htr2c, Mus musculus, UniProt P34968)
Chain of UniProt P34968 (whole entry, looked up): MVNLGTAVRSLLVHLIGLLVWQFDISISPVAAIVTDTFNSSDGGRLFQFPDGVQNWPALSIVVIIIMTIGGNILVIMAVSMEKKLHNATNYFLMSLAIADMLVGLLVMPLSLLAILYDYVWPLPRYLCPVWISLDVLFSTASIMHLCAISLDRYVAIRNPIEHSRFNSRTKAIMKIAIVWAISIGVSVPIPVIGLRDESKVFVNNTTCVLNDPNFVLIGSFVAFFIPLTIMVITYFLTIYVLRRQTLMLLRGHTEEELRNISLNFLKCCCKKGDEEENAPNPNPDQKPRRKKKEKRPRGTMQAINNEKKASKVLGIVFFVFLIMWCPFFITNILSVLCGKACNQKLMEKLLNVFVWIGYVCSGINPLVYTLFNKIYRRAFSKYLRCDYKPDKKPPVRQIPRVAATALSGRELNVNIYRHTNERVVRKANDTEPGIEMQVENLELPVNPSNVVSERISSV
Chain of UniProt Q15303 (whole entry, looked up): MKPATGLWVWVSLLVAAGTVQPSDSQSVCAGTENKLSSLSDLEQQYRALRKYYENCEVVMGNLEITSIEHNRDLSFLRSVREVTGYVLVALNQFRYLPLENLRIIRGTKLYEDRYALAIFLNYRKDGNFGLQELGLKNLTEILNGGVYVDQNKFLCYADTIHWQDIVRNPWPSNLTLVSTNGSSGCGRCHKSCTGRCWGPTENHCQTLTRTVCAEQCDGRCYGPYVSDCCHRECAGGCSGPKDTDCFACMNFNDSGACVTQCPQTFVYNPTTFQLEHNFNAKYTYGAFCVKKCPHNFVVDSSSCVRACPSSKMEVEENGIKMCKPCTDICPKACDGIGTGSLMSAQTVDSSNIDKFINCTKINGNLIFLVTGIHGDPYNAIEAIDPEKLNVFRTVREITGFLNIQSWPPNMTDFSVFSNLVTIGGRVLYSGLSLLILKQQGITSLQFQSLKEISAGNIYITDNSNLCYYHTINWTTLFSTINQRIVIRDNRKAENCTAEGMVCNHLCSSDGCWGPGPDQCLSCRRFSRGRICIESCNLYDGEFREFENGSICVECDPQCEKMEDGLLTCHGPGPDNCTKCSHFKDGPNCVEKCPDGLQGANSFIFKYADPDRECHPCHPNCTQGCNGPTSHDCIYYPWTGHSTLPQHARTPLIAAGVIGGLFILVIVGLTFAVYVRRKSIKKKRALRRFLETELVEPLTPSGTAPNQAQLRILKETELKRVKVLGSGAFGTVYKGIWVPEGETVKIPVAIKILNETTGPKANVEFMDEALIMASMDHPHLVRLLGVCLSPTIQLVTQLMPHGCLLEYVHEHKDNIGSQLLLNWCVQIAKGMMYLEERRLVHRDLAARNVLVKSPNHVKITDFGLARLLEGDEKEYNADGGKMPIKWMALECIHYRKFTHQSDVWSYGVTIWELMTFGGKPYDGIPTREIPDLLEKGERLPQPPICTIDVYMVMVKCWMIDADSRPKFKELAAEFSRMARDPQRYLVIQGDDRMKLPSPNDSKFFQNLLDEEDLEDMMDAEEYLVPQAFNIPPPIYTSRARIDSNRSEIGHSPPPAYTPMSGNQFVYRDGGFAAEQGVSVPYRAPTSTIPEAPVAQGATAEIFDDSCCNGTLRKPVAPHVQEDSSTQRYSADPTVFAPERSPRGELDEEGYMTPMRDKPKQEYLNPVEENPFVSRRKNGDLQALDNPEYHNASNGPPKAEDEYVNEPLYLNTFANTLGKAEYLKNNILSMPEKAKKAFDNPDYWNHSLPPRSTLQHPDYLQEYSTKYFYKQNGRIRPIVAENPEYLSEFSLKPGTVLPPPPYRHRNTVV
Chain of UniProt P35363 (whole entry, looked up): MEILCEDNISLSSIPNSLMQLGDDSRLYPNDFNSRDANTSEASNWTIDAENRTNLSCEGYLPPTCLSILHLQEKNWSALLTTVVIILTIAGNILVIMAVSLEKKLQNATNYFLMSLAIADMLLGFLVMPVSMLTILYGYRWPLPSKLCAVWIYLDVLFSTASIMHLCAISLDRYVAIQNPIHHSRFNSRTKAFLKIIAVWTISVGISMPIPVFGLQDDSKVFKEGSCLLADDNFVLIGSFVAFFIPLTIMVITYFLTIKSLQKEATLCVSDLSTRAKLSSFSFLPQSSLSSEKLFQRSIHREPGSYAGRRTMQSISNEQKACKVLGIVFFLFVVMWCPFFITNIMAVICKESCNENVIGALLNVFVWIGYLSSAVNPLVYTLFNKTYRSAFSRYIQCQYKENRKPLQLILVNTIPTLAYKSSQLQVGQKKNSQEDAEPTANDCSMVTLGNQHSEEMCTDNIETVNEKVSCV
Chain of UniProt Q9UL54 (whole entry, looked up): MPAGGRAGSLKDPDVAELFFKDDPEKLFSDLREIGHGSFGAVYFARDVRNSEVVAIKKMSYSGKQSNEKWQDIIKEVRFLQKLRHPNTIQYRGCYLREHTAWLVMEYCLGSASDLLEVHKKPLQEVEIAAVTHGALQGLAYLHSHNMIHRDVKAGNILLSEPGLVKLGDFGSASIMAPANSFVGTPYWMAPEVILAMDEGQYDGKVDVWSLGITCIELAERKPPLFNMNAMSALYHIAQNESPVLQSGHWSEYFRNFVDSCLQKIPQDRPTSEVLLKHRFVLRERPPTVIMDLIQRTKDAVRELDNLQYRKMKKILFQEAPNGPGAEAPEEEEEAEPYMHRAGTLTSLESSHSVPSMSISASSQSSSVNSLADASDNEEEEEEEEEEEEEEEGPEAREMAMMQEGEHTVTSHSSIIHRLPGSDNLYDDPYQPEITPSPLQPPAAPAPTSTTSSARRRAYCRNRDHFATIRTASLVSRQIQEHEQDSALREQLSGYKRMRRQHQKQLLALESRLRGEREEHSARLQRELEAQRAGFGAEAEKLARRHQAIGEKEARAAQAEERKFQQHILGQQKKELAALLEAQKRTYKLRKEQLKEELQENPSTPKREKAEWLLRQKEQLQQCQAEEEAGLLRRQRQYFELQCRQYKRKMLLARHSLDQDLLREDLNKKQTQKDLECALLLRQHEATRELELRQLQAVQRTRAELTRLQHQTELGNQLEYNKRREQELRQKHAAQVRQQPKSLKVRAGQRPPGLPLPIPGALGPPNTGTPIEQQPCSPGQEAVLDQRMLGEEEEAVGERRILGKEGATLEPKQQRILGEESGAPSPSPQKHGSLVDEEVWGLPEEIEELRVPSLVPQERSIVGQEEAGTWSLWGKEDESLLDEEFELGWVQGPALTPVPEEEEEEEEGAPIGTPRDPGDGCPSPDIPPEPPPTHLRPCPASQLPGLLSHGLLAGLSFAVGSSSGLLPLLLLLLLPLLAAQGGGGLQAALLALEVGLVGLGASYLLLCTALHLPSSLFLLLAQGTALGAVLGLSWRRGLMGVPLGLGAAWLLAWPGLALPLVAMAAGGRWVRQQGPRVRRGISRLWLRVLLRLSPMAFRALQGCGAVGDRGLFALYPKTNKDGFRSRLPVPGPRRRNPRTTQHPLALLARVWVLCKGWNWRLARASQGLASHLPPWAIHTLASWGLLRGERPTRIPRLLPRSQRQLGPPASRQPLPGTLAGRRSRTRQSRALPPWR
Chain of UniProt P49674 (whole entry, looked up): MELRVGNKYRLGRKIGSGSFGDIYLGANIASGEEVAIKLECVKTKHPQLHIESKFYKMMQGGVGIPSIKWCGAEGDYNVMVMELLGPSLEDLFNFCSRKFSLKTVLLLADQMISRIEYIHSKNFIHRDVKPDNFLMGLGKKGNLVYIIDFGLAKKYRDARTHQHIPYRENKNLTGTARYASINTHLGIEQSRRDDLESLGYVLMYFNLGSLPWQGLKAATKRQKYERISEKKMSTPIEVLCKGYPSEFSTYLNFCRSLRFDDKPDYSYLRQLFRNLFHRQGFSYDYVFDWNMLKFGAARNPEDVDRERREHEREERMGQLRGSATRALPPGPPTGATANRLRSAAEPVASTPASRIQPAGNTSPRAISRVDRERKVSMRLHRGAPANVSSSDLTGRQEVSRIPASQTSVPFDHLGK
Chain of UniProt O43318 (whole entry, looked up): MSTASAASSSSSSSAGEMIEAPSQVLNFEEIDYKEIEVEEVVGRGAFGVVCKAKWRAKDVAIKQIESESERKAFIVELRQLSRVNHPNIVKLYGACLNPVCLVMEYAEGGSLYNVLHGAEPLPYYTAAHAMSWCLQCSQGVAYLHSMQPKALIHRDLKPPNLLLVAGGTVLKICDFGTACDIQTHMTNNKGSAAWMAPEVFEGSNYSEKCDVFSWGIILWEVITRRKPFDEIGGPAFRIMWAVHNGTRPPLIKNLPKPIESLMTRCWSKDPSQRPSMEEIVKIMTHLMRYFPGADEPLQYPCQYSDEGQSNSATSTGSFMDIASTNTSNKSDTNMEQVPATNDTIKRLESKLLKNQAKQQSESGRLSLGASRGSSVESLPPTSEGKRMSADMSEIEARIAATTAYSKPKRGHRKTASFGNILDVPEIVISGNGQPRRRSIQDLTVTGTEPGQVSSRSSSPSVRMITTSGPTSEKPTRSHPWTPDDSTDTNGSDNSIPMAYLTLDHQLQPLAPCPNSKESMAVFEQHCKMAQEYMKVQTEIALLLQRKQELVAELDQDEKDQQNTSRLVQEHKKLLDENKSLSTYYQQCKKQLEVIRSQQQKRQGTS

CCOC(=O)C1=C(C)NC(=O)NC1c1ccc([N+](=O)[O-])o1 (centres unmarked)
inhibition (tmk; enzyme activity, inhibitor, absorbance; 0.01 µg/mL): 34.8%

Cc1nn(C)cc1-c1nc2c(N3CCN(Cc4ccc(Cl)cc4)CC3)c(Cl)cnc2[nH]1
remaining binding (TAOK2 (Homo sapiens, UniProt Q9UL54); binding, competition with immobilised ligand; 1 µM): 73%

CCOC(=O)C1=C(C)NC(=NN=c2[nH]c3ccccc3[nH]c2=O)NC1c1ccc(F)cc1 (centres unmarked)
inhibition (tmk; enzyme activity, inhibitor, absorbance; 0.1 µg/mL): 46.1%

Cl.O=C(N[C@H]1CC[C@@]2(O)[C@H]3Cc4ccc(O)c5c4[C@@]2(CCN3CC2CC2)[C@H]1O5)c1ccc([N+](=O)[O-])s1
Emax (HEK293; GTPγS binding, agonist, radiometric): 30.7%

COc1cc(CCN)c(OC)cc1C#N
Emax (Htr2a (Mus musculus, UniProt P35363); G protein activation, agonist, BRET): 89%

N.N.[Cl][Pt][Cl]
inhibition (HuT78; cell growth or viability, ATP luminescence; 10 µM, 72 h): 93%

COc1cc(CCNC(C)c2ccccc2O)c(OC)cc1C#N (centres unmarked)
Emax (HTR2C; calcium signal, agonist): 94%

CCc1nonc1NC(=O)c1oc2c(C)c(C)ccc2c1C
IC50 (PFF0160c E182D; enzyme activity, inhibitor, absorbance): 523 nM

COc1cc(CCN)c(OC)cc1Br
Emax (Htr2c; G protein activation, agonist, BRET): 94%

CC1=C(C(N)=O)C(c2ccc([N+](=O)[O-])o2)NC(=O)N1 (centres unmarked)
inhibition (tmk; enzyme activity, inhibitor, absorbance; 0.01 µg/mL): 46.3%

[2H]c1c([2H])c([C@]2([2H])CCCN2C(=O)C(C)(C)Oc2ccc3cn[nH]c3c2)c([2H])c([2H])c1C([2H])([2H])[2H]
remaining binding (CSNK1E (Homo sapiens, UniProt P49674); binding, competition with immobilised ligand; 1 µM): 69%

COc1ncccc1-c1cnn2ccc(N3CCN(C(=O)OC(C)C)CC3)nc12
remaining binding (PIK3C2B (Homo sapiens, UniProt O00750); binding, competition with immobilised ligand; 1 µM): 92%

Cl.N#Cc1ccc(C(=O)N[C@H]2CC[C@@]3(O)[C@H]4Cc5ccc(O)c6c5[C@@]3(CCN4CC3CC3)[C@H]2O6)s1
Emax (HEK293; GTPγS binding, agonist, radiometric): 30.8%

Cc1ccc(NC(=O)c2cc(S(=O)(=O)NC(C)(C)C)ccc2C)nc1
IC50 (PFF0160c E182D; enzyme activity, inhibitor, absorbance): > 10000 nM

Cl.O=C(N[C@H]1CC[C@@]2(O)[C@H]3Cc4ccc(O)c5c4[C@@]2(CCN3CC2CC2)[C@H]1O5)c1ccc(C(F)(F)F)s1
Emax (HEK293; GTPγS binding, agonist, radiometric): 29.4%

C#Cc1n[nH]c2c(-c3cn(C(C)c4ccccn4)c(=O)[nH]c3=O)cc(F)cc12 (centres unmarked)
inhibition (ERBB4 (Homo sapiens, UniProt Q15303); enzyme activity, inhibitor; 1 µM): 0.9%

COc1cc(CCNC(C)c2ccccc2O)c(OC)cc1Br (centres unmarked)
Emax (Htr2c; G protein activation, agonist, BRET): 102%

Cl.NS(=O)(=O)c1ccc(C(=O)N[C@H]2CC[C@@]3(O)[C@H]4Cc5ccc(O)c6c5[C@@]3(CCN4CC3CC3)[C@H]2O6)s1
Emax (HEK293; GTPγS binding, agonist, radiometric): 31.7%

COc1cc(CCNCc2ccccc2)c(OC)cc1C#N
Emax (HTR2C; calcium signal, agonist): 91%

Nc1ncc(-c2nc(N3CCOCC3)nc(N3CCOCC3)n2)c(C(F)F)n1
remaining binding (MAP3K7 (Homo sapiens, UniProt O43318); binding, competition with immobilised ligand; 10 µM): 91%
